Published values collected from several papers.
Protocols differ between the studies behind these lines. “And” joins repeats or separate records; there may be more than shown. Numbers after ± are the reported error.
Chain of UniProt Q13882 (whole entry, looked up): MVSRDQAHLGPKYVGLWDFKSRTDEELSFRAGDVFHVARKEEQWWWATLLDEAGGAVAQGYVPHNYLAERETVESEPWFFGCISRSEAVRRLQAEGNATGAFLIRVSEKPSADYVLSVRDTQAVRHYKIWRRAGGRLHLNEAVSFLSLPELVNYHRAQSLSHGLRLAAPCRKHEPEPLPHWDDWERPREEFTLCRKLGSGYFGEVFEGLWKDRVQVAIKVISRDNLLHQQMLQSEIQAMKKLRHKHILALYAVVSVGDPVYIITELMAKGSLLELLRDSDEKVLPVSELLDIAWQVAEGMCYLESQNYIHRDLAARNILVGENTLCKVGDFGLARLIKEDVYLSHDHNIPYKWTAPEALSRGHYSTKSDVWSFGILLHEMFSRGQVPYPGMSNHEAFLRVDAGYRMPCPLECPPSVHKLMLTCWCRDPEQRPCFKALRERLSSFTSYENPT

The inhibition of `CC(=O)[O-].O.O.O.O.[Mn+2].[O-]c1ccc(Br)cc1C=NCCN1CCOCC1` is reported as 6.74% (hydroxyl radical scavenging; 40 µM).
`C=CC(=O)Nc1cccc(Cn2ncc3cnc(Nc4cnn(CCOC)c4)nc32)c1`: “percent of control” 100% (TLK2 human; binding, KINOMEscan; 100 nM; lower = stronger binding).
Under “increase in life span”, `CCN(C(=O)c1cc(F)ccc1Oc1nncnc1N1CCC2(C1)CN([C@H](CCCN(C)CCOC)C(C)C)C2)C(C)C` is recorded as 96% (OCI-AML-3, mouse, disseminated AML model; 30 mg/kg).
For `NC[C@@H](C(=O)Nc1ccc(-c2cn[nH]c2)cc1)c1ccccc1`, the IOP was 28.4 mmHg (tonometry; NZW rabbit, magnetic bead-induced ocular hypertension; ocular, 0.1%, 30 h).
For `COC1OC(C)C(OC2OC(C)C(OS(=O)(=O)O)C(OC3OC(C)C(OC4OC(C)C(OS(=O)(=O)O)C(OC5OC(C)C(OC6OC(C)C(OS(=O)(=O)O)C(OC7OC(C)C(OC8OC(C)C(OS(=O)(=O)O)C(OC9OC(C)C(OC%10OC(C)C(OS(=O)(=O)O)C(OC%11OC(C)C(OC%12OC(C)C(OS(=O)(=O)O)C(OS(=O)(=O)O)C%12O)C(OS(=O)(=O)O)C%11O)C%10O)C(OS(=O)(=O)O)C9O)C8O)C(OS(=O)(=O)O)C7O)C6O)C(OS(=O)(=O)O)C5O)C4O)C(OS(=O)(=O)O)C3O)C2O)C(OS(=O)(=O)O)C1O` (stereo not drawn), the prothrombin time was 14.7 ± 0.5 s (human plasma; 128 µg/mL).
For `O=C(N/N=C/c1ccc(C[n+]2ccccc2)cc1)c1cccc(C(=O)N/N=C/c2ccc(C[n+]3ccccc3)cc2)c1`, the ΔTm was 2.3 ± 0.3 °C (MYC parallel G4 DNA; FRET melting; 1 µM, DNA 0.2 µM, together with: duplex DNA competitor 10 µM).
`Cc1nn(-c2cccc(N)c2)c(=O)c2cnc(Nc3ccc(N4CCNCC4)cc3)nc12` has an IC50 of over 10 µM (PTK6 (Homo sapiens, UniProt Q13882); enzyme activity, inhibitor).
For `Nc1nc2cc(CC[C@H]3C[C@@H](n4ccc5c(N)ncnc54)[C@H](O)[C@@H]3O)ccc2cc1Br`, the tumour volume was 378 ± 64 mm3 (NCI-H441 xenograft, mouse; 1.0 mg/kg/day, day 38).
With `Nc1ncc(-c2cc(-c3cnn(CC(F)(F)F)c3)ncc2F)nc1C(=O)NC1CNCC(F)C1` (stereo not drawn) the remaining binding was 84% (STK16; KINOMEscan; 1 µM; reference: DMSO control).
With `COc1ccc(NC(=O)c2ccc3[nH]c(-c4ccc(N(C)C)cc4)nc3c2)cn1` the tumour volume was 47 mm3 and 91.6 mm3 and 81.7 mm3 and 125 mm3 and 202 mm3 (Lewis lung carcinoma, mice, syngeneic graft, subcutaneous; intraperitoneal, 50 mg/kg daily, day 3).
For `CCC(CC)n1c(Cc2cccs2)nc2cc(C(=O)N[C@@H](CC(=O)O)c3ccccc3)ccc21`, “lung wet/dry weight ratio” read “decreased” (mouse, HFpEF model (HFD plus L-NAME); ip, 20 mg/kg/day, 2 wk).
`CN1C/C(=C\c2cc(Cl)c(O)c(Cl)c2)C(=O)/C(=C/c2cc(Cl)c(O)c(Cl)c2)C1` gave an IC50 of 224 µg/mL (ABTS scavenging; 20 min).
With `COC1OC(C)C(OC2OC(C)C(OS(=O)(=O)O)C(OC3OC(C)C(OC4OC(C)C(OS(=O)(=O)O)C(OC5OC(C)C(OS(=O)(=O)O)C(OS(=O)(=O)O)C5O)C4O)C(OS(=O)(=O)O)C3O)C2O)C(OS(=O)(=O)O)C1O` (stereo not drawn) the prothrombin time was 15.2 ± 0.5 s (human plasma; 128 µg/mL).
`Oc1cc2c(cc1O)C(c1ccc3[nH]ccc3c1)NCC2` (stereo not drawn) has an IC50 of 12.8 µM (ABTS scavenging; 10 min, dark).
With `COC1OC(C)C(OC2OC(C)C(O)C(OC3OC(C)C(OC4OC(C)C(O)C(OC5OC(C)C(O)C(OS(=O)(=O)O)C5OS(=O)(=O)O)C4OS(=O)(=O)O)C(OS(=O)(=O)O)C3OS(=O)(=O)O)C2OS(=O)(=O)O)C(OS(=O)(=O)O)C1OS(=O)(=O)O` (stereo not drawn) the prothrombin time was 14.4 ± 0.5 s (human plasma; 128 µg/mL).
For `CC(C)OC(=O)[C@H](CO)NCc1cc(Cl)c(OCc2cccc(-c3ccccc3)c2Br)cc1OCc1cccnc1`, the tumour volume was 1290 ± 514 mm³ (hPD-L1 MC-38 tumour, humanised hPD-1 C57BL/6 mouse; oral, 5 mg/kg × 21, day 20).
The ΔTm of `C[n+]1ccc(/C=N/NC(=O)c2cncc(C(=O)N/N=C/c3cc[n+](C)c4ccccc34)n2)c2ccccc21` is reported as 11.4 ± 0.5 °C (MYC parallel G4 DNA; FRET melting; 1 µM, DNA 0.2 µM, together with: duplex DNA competitor 10 µM).
For `COC1CN([C@H]2CC[C@H]([C@@]3(C)Oc4c(Cl)cc(C(=O)NCc5c(SC)cc(C)[nH]c5=O)c(C)c4O3)CC2)C1`, “log2 fold change” read 3.4 (RNA-seq, item: DTNA; human, whole blood; dose not given, 24 h; reference: pretreatment baseline).
`CC(C)C[C@H](NC(=O)[C@H](CC(=O)O)NC(=O)CNC(=O)[C@@H](N)CCCNC(=N)N)C(=O)N[C@@H](C)C(=O)N[C@H](C(=O)N[C@@H](CC(C)C)C(=O)N[C@@H](CCCNC(=N)N)C(=O)N[C@@H](CCC(N)=O)C(=O)N[C@@H](CC(C)C)C(=O)N[C@@H](C)C(=O)N[C@@H](CCC(N)=O)C(=O)N[C@@H](CCC(=O)O)C(=O)N[C@@H](CC(=O)O)C(=O)NCC(=O)N[C@H](C(=O)N[C@H](C(=O)NCC(=O)N[C@H](C(=O)N[C@@H](CCCNC(=N)N)C(=O)NCCOCCOCCOCCOCCOCCOCCOCCOCCOCCOCCOCCOCCC(=O)N[C@@H](CS)C(N)=O)C(C)C)C(C)C)C(C)C)[C@@H](C)O`: “fluorescence signal ratio” 40.4 and 121 (ex vivo NIR imaging; NOD/SCID mice, xenograft, H2009 xenograft; intravenous, 30 µg, 24 h; reference: H460 xenograft).
Under “serum uric acid”, `O=C(NS(=O)(=O)c1cccs1)c1cc2ccccc2n1Cc1ccc(Br)c2ccccc12` is recorded as 469 µM and 304 µM and 267 µM and 509 µM and 365 µM and 489 µM (mouse, chronic hyperuricaemia model, serum; dose not given).
For `COC1OC(C)C(OS(=O)(=O)O)C(OC2OC(C)C(OS(=O)(=O)O)C(OC3OC(C)C(OS(=O)(=O)O)C(OC4OC(C)C(OS(=O)(=O)O)C(OC5OC(C)C(OS(=O)(=O)O)C(OC6OC(C)C(OS(=O)(=O)O)C(OC7OC(C)C(OS(=O)(=O)O)C(OS(=O)(=O)O)C7OS(=O)(=O)O)C6OS(=O)(=O)O)C5OS(=O)(=O)O)C4OS(=O)(=O)O)C3OS(=O)(=O)O)C2OS(=O)(=O)O)C1OS(=O)(=O)O` (stereo not drawn), “prothrombin time prolongation” read 1.01 fold (human plasma; 128 µg/mL; reference: control).
`CN1CCCNC(=O)c2cccc(c2)C(=O)NCCCN(C)CCCNc2cccc3c2C(=O)c2cccc(c2C3=O)NCCC1` has a tumour volume of 101 mm3 and 63.5 mm3 and 87.1 mm3 and 60 mm3 (SAS xenograft, KSN/Slc nude mice; dose not given, day 0).
For `COC1OC(C)C(OS(=O)(=O)O)C(OC2OC(C)C(OS(=O)(=O)O)C(OC3OC(C)C(OS(=O)(=O)O)C(OC4OC(C)C(OS(=O)(=O)O)C(OS(=O)(=O)O)C4O)C3O)C2O)C1O` (stereo not drawn), “prothrombin time prolongation” read 1 fold (human plasma; 128 µg/mL; reference: control).
With `CNS(=O)(=O)Nc1nccc(Cc2c(C)c3ccc(Oc4ncccc4F)cc3oc2=O)c1F` the IC50 was over 1 µM (SU-DHL-6; cell viability; 7 days).
Under “log2 fold change”, `Cc1ncsc1-c1ccc(C(C)NC(=O)C2CC(O)CN2C(=O)C(NC(=O)CCCCCCCCCCN2CCCC(Nc3ncc(Cl)c(Nc4ccccc4S(=O)(=O)C(C)C)n3)C2)C(C)(C)C)cc1` (stereo not drawn) is recorded as -1.35 (22Rv1; RNA-seq, item: ZCCHC24 mRNA; concentration not given; reference: DMSO).
`CC(C)(C)NCC(SS(=O)(=O)O)c1ccccc1` (stereo not drawn) — result for “liver weight decrease”: 25% (Schistosoma mansoni-infected mice; 200 mg/kg single, day 42, perfusion day 56; reference: vehicle).
For `COc1cc(O)ccc1CCC(c1ccc(O)cc1)c1cc2c(c(C)c1O)OC(c1ccc(O)cc1)CC2` (mixture of isomers), the amount was 8 ± 2 pg/mL blood (item: RvD5; human whole blood; 0.3 µM, together with: Escherichia coli).
`COC1OC(C)C(O)C(OC2OC(C)C(O)C(OC3OC(C)C(O)C(OC4OC(C)C(O)C(OC5OC(C)C(O)C(OC6OC(C)C(O)C(OC7OC(C)C(O)C(OC8OC(C)C(O)C(OS(=O)(=O)O)C8OS(=O)(=O)O)C7OS(=O)(=O)O)C6OS(=O)(=O)O)C5OS(=O)(=O)O)C4OS(=O)(=O)O)C3OS(=O)(=O)O)C2OS(=O)(=O)O)C1OS(=O)(=O)O` (stereo not drawn) — result for “prothrombin time prolongation”: 0.98 fold (human plasma; 128 µg/mL; reference: control).
For `CCC(=O)N[C@@H](C)C(=O)OCC(=O)N[C@@H](C)C(=O)O`, “chain scission rate constant” read 0.0076 h⁻¹ (water; pH 3, 65 °C).
`COC1OC(C)C(OC2OC(C)C(OS(=O)(=O)O)C(OC3OC(C)C(OC4OC(C)C(OS(=O)(=O)O)C(OC5OC(C)C(OS(=O)(=O)O)C(OS(=O)(=O)O)C5OS(=O)(=O)O)C4OS(=O)(=O)O)C(OS(=O)(=O)O)C3OS(=O)(=O)O)C2OS(=O)(=O)O)C(OS(=O)(=O)O)C1OS(=O)(=O)O` (stereo not drawn) gave a prothrombin time of 15.8 ± 0.4 s (human plasma; 128 µg/mL).
The liver weight of `CCCCCCCCCCCCCCCC(=O)NCCCC[C@H](N)C(=O)N[C@@H](CC(=O)O)C(=O)N[C@H](C(=O)N[C@@H](Cc1c[nH]cn1)C(=O)N[C@@H](Cc1ccccc1)C(=O)N[C@@H](CCCNC(=N)N)C(=O)N[C@H](C(=O)N[C@@H](Cc1ccccc1)C(=O)N[C@@H](CCCNC(=N)N)C(=O)N[C@@H](CO)C(=O)N[C@@H](Cc1c[nH]cn1)C(=O)N[C@@H](CO)C(=O)N[C@@H](CC(=O)O)C(=O)N[C@@H](Cc1ccc(O)cc1)C(=O)N[C@@H](CCCNC(=N)N)C(=O)N[C@@H](CCCNC(=N)N)C(=O)N[C@H](C(=O)O)[C@@H](C)CC)[C@@H](C)O)[C@@H](C)O` is reported as 1.1 ± 0.14 g (C57BL/6J mice, MCD diet-fed; dose not given, 3 weeks, NASH model).
For `COC1OC(C)C(OC2OC(C)C(OS(=O)(=O)O)C(OC3OC(C)C(OC4OC(C)C(OS(=O)(=O)O)C(OC5OC(C)C(OC6OC(C)C(OS(=O)(=O)O)C(OC7OC(C)C(OS(=O)(=O)O)C(OS(=O)(=O)O)C7O)C6O)C(OS(=O)(=O)O)C5O)C4O)C(OS(=O)(=O)O)C3O)C2O)C(OS(=O)(=O)O)C1O` (stereo not drawn), “prothrombin time prolongation” read 1 fold (human plasma; 128 µg/mL; reference: control).
For `CN1CCC[C@]1(C)/C=C/S(=O)(=O)NC(=O)Nc1c2c(cc3c1CCC3)CCC2`, the IL-1β inhibition was 98% (human, whole blood ex vivo; 100 mg twice daily, day 1, 12 h, multiple ascending dose, together with: LPS and ATP).
